Experimental data of several laboratories.
Organism: Bacillus subtilis

SMILES | method | strain | time | temperature | MIC
N=C(N)NCCC[C@H](NC(=O)[C@H](Cc1c[nH]c2ccccc12)NC(=O)[C@H](CCCNC(=N)N)NC(=O)[C@@H](N)Cc1c[nH]c2ccccc12)C(=O)N[C@@H](Cc1ccccc1)C(=O)N[C@@H](CCC(N)=O)C(=O)N[C@@H](Cc1ccccc1)C(=O)N[C@@H](CCC(N)=O)C(=O)N[C@@H](Cc1ccccc1)C(=O)N[C@@H](CCCCN)C(N)=O | broth microdilution, optical density |  |  |  | 35 µM
CC[C@H](C)[C@H](N)C(=O)N[C@@H](CCCNC(=N)N)C(=O)N[C@H](C(=O)N[C@@H](Cc1c[nH]c2ccccc12)C(=O)N[C@@H](Cc1c[nH]c2ccccc12)C(=O)N[C@@H](CCCCN)C(=O)N[C@H](C(=O)N[C@H](C(=O)N[C@@H](CCCNC(=N)N)C(=O)N[C@@H](CCCCN)C(=O)N[C@@H](Cc1c[nH]c2ccccc12)C(=O)N[C@@H](CCCCN)C(=O)N[C@@H](C)C(=O)N[C@H](C(=O)N[C@@H](Cc1c[nH]c2ccccc12)C(=O)N[C@@H](Cc1c[nH]cn1)C(N)=O)[C@@H](C)CC)C(C)C)[C@@H](C)CC)C(C)C | broth dilution | KCTC 3068 |  |  | 25 µM
CCCCCCCC/C=C\CCCCCCCC(=O)NS(=O)(=O)NCCC |  | ATCC 23857 |  |  | > 200 µg/mL
CCCCCCCCCCCC(=O)OC[C@H]1O[C@@H](n2cc(C)c(=O)[nH]c2=O)C[C@@H]1O | broth microdilution |  |  |  | 0.25 µg/mL
CC(C)C[C@H](NC(=O)[C@@H](NC(=O)[C@H](CCCNC(=N)N)NC(=O)[C@H](CCC(N)=O)NC(=O)[C@H](Cc1ccccc1)NC(=O)[C@H](Cc1ccc(O)cc1)NC(=O)[C@H](CC(N)=O)NC(=O)[C@H](Cc1c[nH]c2ccccc12)NC(=O)[C@@H](NC(=O)[C@H](CCCNC(=N)N)NC(=O)[C@H](CCCCN)NC(=O)[C@@H](N)Cc1ccccc1)C(C)C)C(C)C)C(=O)N[C@H](C(=O)N[C@@H](CCCCN)C(=O)N[C@@H](CCCCN)C(=O)N[C@@H](Cc1ccc(O)cc1)C(=O)N[C@@H](C)C(N)=O)C(C)C | broth dilution | KCTC 3068 |  |  | < 3.1 µM
CC[C@H](C)[C@H](NC(=O)[C@H](CC(C)C)NC(=O)[C@H](CCCCN)NC(=O)[C@@H](NC(=O)[C@H](C)NC(=O)[C@H](CCC(=O)O)NC(=O)[C@H](Cc1c[nH]cn1)NC(=O)[C@@H](NC(=O)[C@H](CCCCN)NC(=O)[C@H](CCC(N)=O)NC(=O)[C@H](Cc1ccccc1)NC(=O)[C@@H](N)C(C)C)[C@@H](C)CC)[C@@H](C)CC)C(N)=O | broth microdilution | KCTC 1998 | 18 h | 37 °C | > 128 µM
N=C(N)NCCC[C@H](NC(=O)[C@@H](N)CCCNC(=N)N)C(=O)N[C@@H](Cc1c[nH]c2ccccc12)C(=O)N[C@@H](Cc1c[nH]c2ccccc12)C(=O)N[C@@H](CCC(N)=O)C(=O)N[C@@H](Cc1ccccc1)C(=O)N[C@@H](CCC(N)=O)C(=O)N[C@@H](Cc1ccccc1)C(=O)N[C@@H](CCCCN)C(N)=O | broth microdilution, optical density |  |  |  | 9.6 µM
CCCCCCCCCCCCN(C)C(=O)CP(=O)(O)O |  | ATCC 23857 |  |  | > 200 µg/mL
Cc1ccc2[nH]c3c(c2c1)CCCC3NCCc1ccc(O)cc1 (stereo not drawn) | broth microdilution | 168 |  |  | 16 µg/mL

Excerpt of the above:
SMILES | method | strain | time | temperature | MIC
CC[C@H](C)[C@H](NC(=O)[C@H](CC(C)C)NC(=O)[C@H](CCCCN)NC(=O)[C@@H](NC(=O)[C@H](C)NC(=O)[C@H](CCC(=O)O)NC(=O)[C@H](Cc1c[nH]cn1)NC(=O)[C@@H](NC(=O)[C@H](CCCCN)NC(=O)[C@H](CCC(N)=O)NC(=O)[C@H](Cc1ccccc1)NC(=O)[C@@H](N)C(C)C)[C@@H](C)CC)[C@@H](C)CC)C(N)=O | broth microdilution | KCTC 1998 | 18 h | 37 °C | > 128 µM
